Assay results pooled from the literature.
Each numbered part is a random draw from the data of one study; scales do not carry over between parts. Substitutions count along the parent as printed.

Set 1 — technique: protein binding microarray; molecule type: double-stranded DNA, one strand shown; medium: in vitro; concentration: not given; baseline: not given; direction: higher = stronger binding
Target: Histone acetyltransferase KAT6A, both winged helices, GST fusion (KAT6A, Homo sapiens, UniProt Q92794, residues 1-181)
Setting: 8-mer, flanks averaged, mean of 2 arrays, mostly near background
Residues (chain): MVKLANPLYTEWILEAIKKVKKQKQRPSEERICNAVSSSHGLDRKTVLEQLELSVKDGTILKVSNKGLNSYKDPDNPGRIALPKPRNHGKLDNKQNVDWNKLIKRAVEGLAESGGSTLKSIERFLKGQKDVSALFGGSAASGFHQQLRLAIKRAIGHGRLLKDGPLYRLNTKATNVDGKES
Strand | E-score
CCGAGGAG | 0.00504
ACCCTGTC | -0.0408
GGAGACAA | -0.11
AGTACGGG | 0.143
GACCAGTC | -0.0679

Set 2 — technique: RNA Bind-n-Seq; molecule type: RNA; medium: in vitro; concentration: 200 nM; setting: whole 134-nt RNA, ends assumed; added: 150 mM KCl; baseline: input library; direction: higher = stronger binding
Target: Fragile X messenger ribonucleoprotein 1, C-terminal low-complexity region (Fmr1, Mus musculus, UniProt P35922)
Strand | log2 enrichment
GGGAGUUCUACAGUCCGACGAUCACCAUGCAGGUGGGCAUCUUUGGGAAGUGGGGCAGGGGGGGGAUAGGGAGGGGGGUAACACUUUGGGAACAGGUGGUCCCAGGUCGUUUCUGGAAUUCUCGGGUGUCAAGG | 0.609
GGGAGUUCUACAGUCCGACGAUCUGGUUUUGGUGCCUGGCAUCGAAGAUGGUGUGUUCUUUCUGGAAACUGUAUAUCUUAUUGGACUUAUCCAGAUGAUGAGAAACGCAAGGUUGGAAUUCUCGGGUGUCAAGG | -0.55
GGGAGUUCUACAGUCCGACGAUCUGGGAGGUGGAUUUUGUUUAUUUUUUUAGCUCAUGUCCAGGGGUGGGAAUUUUUUUUUAAUAUGUGUCAUGAAUAAAGUUGUUUUUGAAAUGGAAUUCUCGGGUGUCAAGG | 0.185
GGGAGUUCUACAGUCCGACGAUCUCAAGUCCUGUGCUACACAUCGUAUGUACCGAAUCGGGAAAGGGAAAGGGAAAGGAAAGUAUUAUGUUACGCCGUUCGGAUCUGCACUUCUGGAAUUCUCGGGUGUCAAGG | -0.448
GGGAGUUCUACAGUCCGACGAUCAAGUCCUGUGCUACACAUCGUAUGUACCGAAUCGGGGAAAGGGGUUUGGGGAGGGGAAAGUAUUAUGUUACGCCGUUCGGAUCUGCACUUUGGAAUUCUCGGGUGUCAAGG | 0.91
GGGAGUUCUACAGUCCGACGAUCUCCUCAAGUCCUGUGCUACACAUCGUAUGUACCGAAUCGGCGGGCGGCGGGGAAAGUAUUAUGUUACGCCGUUCGGAUCUGCACUUCCAGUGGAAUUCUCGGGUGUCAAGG | 0.323
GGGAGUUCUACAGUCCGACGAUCUCAAGUCCUGUGCUACACAUCGUAUGUACCGAAUCGGGCCGGGGCCGGGGCCGGGAAAGUAUUAUGUUACGCCGUUCGGAUCUGCACUUCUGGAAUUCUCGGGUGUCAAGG | -0.378

Set 3 — target: CCNE2, cyclin fold, Cln2 fusion (human); technique: yeast growth competition, sequencing; medium: yeast; setting: weak parent motif; baseline: not given; direction: higher = stronger binding
Starting sequence: SLBP docking peptide (human); ARYKRKLLINDFG
Change | normalised enrichment score
ARYKRKLLINDFI [G13I] | 0.782
ARYKRKLLINAFG [D11A] | 0.928
ARYERKLLINDFG [K4E] | 0.0779
ARYKRKLLINNFG [D11N] | 0.697

Further values, each from its own experiment
Substance | target | assay | test system | setting | scale | endpoint | value
PhoQ, residues 284 288 289 292 302 303 SNGLAW | PhoP, residues 12 14 15 18 19 NHFRA (Escherichia coli, UniProt P23836) | Sort-seq, measured: YFP reporter | E. coli | PhoQ-PhoP variant library, added: 10 µM Mg2+ | baseline: high Mg2+ state, higher = stronger signaling | fold induction | 6.16

Some of these lines once more (set 2):
Strand | log2 enrichment
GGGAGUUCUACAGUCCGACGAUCAAGUCCUGUGCUACACAUCGUAUGUACCGAAUCGGGGAAAGGGGUUUGGGGAGGGGAAAGUAUUAUGUUACGCCGUUCGGAUCUGCACUUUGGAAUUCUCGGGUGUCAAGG | 0.91
